{"data": "Measured values collected from several papers", "POLB I260M": "DNA polymerase beta (POLB, Homo sapiens, UniProt P06746, I260M)", "Eif4e": "Eukaryotic translation initiation factor 4E (Eif4e, Mus musculus, UniProt P63073)", "note": "± marks the error that the study gave.", "chain of UniProt P63073 (whole entry, looked up)": "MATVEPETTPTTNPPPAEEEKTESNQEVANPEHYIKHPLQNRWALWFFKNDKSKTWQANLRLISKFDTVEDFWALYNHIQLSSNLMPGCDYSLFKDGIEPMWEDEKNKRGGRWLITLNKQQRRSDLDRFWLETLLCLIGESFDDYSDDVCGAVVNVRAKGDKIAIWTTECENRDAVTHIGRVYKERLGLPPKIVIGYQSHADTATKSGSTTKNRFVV", "chain of UniProt P20248 (whole entry, looked up)": "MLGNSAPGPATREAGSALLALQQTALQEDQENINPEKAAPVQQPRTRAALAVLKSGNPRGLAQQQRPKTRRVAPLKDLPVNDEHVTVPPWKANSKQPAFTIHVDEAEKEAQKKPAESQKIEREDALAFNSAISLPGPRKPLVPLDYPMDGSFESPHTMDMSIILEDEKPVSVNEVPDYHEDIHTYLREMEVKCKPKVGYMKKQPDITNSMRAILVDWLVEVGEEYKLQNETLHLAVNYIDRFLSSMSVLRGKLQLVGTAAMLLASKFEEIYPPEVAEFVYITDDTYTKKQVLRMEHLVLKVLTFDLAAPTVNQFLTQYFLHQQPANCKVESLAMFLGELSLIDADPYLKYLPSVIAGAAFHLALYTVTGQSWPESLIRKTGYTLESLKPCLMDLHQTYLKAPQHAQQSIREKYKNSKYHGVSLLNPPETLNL", "chain of UniProt P10145 (whole entry, looked up)": "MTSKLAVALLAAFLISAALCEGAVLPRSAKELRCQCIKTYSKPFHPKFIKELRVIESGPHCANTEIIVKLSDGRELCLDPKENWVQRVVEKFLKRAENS", "chain of UniProt O00214 (whole entry, looked up)": "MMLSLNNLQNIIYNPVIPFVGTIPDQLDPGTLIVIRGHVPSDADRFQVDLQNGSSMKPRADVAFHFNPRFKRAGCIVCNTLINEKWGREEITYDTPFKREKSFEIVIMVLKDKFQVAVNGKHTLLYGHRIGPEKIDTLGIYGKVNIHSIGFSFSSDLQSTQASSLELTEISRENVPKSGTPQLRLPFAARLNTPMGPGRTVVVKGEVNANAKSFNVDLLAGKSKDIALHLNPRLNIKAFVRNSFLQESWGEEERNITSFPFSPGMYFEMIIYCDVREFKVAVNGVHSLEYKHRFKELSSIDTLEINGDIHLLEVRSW", "chain of UniProt Q96301 (whole entry, looked up)": "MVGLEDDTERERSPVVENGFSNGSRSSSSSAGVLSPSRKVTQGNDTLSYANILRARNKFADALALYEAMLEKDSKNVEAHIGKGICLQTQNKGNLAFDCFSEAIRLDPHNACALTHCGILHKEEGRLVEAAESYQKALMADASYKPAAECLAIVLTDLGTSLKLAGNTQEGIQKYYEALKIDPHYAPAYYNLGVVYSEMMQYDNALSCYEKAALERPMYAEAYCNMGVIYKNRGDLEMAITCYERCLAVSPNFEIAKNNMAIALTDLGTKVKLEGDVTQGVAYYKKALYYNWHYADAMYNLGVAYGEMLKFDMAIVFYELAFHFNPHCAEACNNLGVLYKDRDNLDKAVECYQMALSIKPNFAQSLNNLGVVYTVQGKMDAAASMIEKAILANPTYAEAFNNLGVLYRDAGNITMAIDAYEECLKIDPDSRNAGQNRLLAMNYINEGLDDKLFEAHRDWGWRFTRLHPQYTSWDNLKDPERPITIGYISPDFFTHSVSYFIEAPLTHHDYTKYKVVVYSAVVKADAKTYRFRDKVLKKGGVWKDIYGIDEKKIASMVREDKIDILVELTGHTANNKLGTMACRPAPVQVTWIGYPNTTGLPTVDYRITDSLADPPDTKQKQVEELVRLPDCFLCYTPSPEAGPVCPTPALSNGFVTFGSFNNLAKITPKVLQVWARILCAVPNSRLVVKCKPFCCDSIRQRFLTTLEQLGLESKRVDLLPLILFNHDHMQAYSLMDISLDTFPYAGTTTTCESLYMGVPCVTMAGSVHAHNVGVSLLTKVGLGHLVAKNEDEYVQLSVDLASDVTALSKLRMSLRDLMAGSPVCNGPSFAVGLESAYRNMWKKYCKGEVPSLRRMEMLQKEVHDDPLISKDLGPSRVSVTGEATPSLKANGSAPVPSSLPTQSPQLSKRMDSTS", "chain of UniProt P53341 (whole entry, looked up)": "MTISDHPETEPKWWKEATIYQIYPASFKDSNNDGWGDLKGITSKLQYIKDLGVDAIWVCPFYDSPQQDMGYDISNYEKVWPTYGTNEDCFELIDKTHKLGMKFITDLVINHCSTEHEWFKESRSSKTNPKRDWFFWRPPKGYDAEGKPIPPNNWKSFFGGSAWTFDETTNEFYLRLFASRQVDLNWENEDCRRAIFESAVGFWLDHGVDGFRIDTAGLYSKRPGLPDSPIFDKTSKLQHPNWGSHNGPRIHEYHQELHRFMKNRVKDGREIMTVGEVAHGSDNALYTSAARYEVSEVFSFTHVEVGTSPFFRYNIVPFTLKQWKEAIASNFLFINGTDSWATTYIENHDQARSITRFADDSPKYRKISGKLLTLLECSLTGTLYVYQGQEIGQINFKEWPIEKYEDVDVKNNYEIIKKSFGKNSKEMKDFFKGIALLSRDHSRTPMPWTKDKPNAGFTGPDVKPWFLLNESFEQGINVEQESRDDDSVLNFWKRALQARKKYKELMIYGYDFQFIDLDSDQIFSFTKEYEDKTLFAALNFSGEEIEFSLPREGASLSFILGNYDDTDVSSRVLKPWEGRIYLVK", "chain of UniProt P97481 (whole entry, looked up)": "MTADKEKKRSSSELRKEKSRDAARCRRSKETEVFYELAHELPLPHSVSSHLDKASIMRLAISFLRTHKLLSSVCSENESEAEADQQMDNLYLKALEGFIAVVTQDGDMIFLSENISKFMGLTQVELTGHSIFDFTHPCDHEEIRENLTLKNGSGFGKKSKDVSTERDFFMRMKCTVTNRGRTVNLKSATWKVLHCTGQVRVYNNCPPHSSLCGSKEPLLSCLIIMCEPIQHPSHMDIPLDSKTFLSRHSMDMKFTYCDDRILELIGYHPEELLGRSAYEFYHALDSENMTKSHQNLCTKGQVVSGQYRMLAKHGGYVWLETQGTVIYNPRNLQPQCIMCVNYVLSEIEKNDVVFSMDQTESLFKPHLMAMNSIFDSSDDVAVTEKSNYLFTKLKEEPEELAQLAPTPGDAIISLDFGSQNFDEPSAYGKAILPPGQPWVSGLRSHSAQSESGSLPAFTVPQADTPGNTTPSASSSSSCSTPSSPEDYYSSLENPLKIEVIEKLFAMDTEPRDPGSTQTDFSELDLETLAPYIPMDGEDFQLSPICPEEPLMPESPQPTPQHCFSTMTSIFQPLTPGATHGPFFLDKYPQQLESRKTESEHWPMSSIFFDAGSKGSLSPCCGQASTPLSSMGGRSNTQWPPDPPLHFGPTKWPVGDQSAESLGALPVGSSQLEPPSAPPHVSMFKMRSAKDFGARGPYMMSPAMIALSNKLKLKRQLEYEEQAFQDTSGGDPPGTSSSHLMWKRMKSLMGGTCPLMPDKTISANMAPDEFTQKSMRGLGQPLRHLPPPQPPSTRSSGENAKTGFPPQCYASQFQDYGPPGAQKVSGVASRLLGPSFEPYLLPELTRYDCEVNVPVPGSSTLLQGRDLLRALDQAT", "chain of UniProt Q969S8 (whole entry, looked up)": "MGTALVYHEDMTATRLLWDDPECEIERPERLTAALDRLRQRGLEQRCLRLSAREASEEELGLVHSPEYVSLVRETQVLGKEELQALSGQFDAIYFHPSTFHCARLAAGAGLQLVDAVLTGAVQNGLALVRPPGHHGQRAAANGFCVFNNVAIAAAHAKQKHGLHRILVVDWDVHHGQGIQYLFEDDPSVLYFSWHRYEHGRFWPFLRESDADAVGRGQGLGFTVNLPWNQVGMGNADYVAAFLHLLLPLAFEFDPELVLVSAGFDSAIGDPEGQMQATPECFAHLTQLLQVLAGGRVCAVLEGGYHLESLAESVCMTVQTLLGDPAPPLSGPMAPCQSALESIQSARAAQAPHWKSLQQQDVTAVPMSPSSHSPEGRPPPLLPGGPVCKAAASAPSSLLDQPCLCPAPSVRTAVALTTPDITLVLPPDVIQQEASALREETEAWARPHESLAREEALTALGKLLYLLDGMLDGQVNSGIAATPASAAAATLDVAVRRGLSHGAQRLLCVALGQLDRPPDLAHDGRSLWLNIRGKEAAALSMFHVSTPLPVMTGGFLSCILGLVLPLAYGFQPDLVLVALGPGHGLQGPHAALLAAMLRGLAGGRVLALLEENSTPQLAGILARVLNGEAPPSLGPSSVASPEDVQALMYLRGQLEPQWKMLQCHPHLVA"}
{"Structure (SMILES)": "CC[C@H](C)[C@@H]1NC(=O)[C@H](C)NC(=O)[C@H](C)NC(=O)[C@H]([C@@H](C)O)NC(=O)[C@H](Cc2ccccc2)NC(=O)[C@@H]2CSSC[C@@H]3NC(=O)[C@H](C(C)C)NC(=O)[C@H](CCCCN)NC(=O)[C@H](CO)NC(=O)[C@H](C)NC(=O)[C@@H]4CSSC[C@H](NC(=O)[C@H](CO)NC(=O)[C@H](CCC(=O)O)NC(=O)CNC(=O)[C@H](CSSC[C@H](NC(=O)CNC1=O)C(=O)N[C@@H](CO)C(=O)N4)NC(=O)[C@@H]1CCCN1C(=O)[C@H](Cc1ccccc1)NC(=O)CNC(=O)[C@H](CC(N)=O)NC(=O)[C@H](CCCCN)NC(=O)[C@H](Cc1ccc(O)cc1)NC3=O)C(=O)N[C@@H](C(C)C)C(=O)N[C@@H](Cc1ccc(O)cc1)C(=O)N[C@@H](CC(C)C)C(=O)N1CCC[C@H]1C(=O)N2", "target": "POPC/POPE lipid membrane", "test": "membrane binding, surface plasmon resonance", "system": "POPC/POPE 80:20 vesicles", "conditions": "pH 7.4", "Kd [µM]": "5.18 ± 0.81"}
{"Structure (SMILES)": "Nc1nc2c(ncn2C2CC(O)C(COP(=O)(O)OP(=O)(O)C(Br)P(=O)(O)O)O2)c(=O)[nH]1 (mixture of isomers)", "target": "POLB I260M", "test": "nucleotide binding, substrate, single turnover kinetics", "conditions": "37 °C, dG misincorporation opposite A", "Kd [µM]": "454 ± 179"}
{"Structure (SMILES)": "COc1ccc(C(=O)NO)cc1NC(=O)c1ccc(-c2ccccc2)cc1", "target": "HDAC10 (Homo sapiens, UniProt Q969S8)", "test": "chemoproteomic pulldown", "system": "SW-620/MV4-11 lysate", "conditions": "1 h, 30 °C", "Kd [µM]": 0.631}
{"Structure (SMILES)": "CC[C@H](C)[C@H](NC(=O)[C@@H]1CCCN1C(=O)[C@H](Cc1c[nH]cn1)NC(=O)[C@@H](NC(=O)[C@H](Cc1ccc(O)c(I)c1)NC(=O)[C@@H](NC(=O)[C@H](CCCNC(=N)N)NC(=O)CNC)C(C)C)[C@@H](C)CC)C(=O)O [iodine-125 labelled]", "target": "angiotensin II receptor type 1, rat", "test": "binding, saturation radioligand binding", "system": "female rat, proestrus, liver membranes", "Kd [µM]": "0.00069 ± 0.00035"}
{"Structure (SMILES)": "CNCCNC(=O)CN1C(=O)Cc2c([nH]c3ccc(Br)cc23)-c2ccc(Cl)cc21", "target": "Trypanothione synthetase (Leishmania infantum, UniProt A4I2Z3)", "test": "isothermal titration calorimetry", "conditions": "added: glutathione 2 mM", "Kd [µM]": 1.9}
{"Structure (SMILES)": "Cc1cn(C2CC(O)C(COP(=O)(O)OP(=O)(O)C(F)(Cl)P(=O)(O)O)O2)c(=O)[nH]c1=O (mixture of isomers)", "target": "POLB I260M", "test": "substrate, single turnover kinetics", "conditions": "37 °C", "Kd [µM]": "3.1 ± 0.5"}
{"Structure (SMILES)": "CCOc1ccc(-c2nc3cc(-c4nc5cc(N6CCN(C)CC6)ccc5[nH]4)ccc3[nH]2)cc1", "target": "HIV-1 SL4 RNA stem-loop", "test": "binding, ESI-FTMS titration", "conditions": "pH 7.5", "Kd [µM]": "171 ± 17.9"}
{"Structure (SMILES)": "OC[C@H]1Oc2cc(Cc3ccccc3)cc3c2[C@@H](OC3)[C@H]1O", "target": "Galectin-8 (LGALS8, Homo sapiens, UniProt O00214)", "test": "cell-free assay, FP", "Kd [µM]": 240}
{"Structure (SMILES)": "CC(C)CCCC(C)C1CCC2C3CC=C4CC(OC(=O)CCC(=O)NCCCCCCNC(=O)O[C@H]5[C@@H](O)[C@H](n6cnc7c(=O)[nH]c(N)nc76)O[C@@H]5COP(=O)(O)OP(=O)(O)OP(=O)([S-])OC[C@H]5O[C@@H](n6c[n+](C)c7c(O)nc(N)nc76)[C@H](O)[C@@H]5O)CCC4(C)C3CCC12C (mixture of isomers)", "target": "Eif4e", "test": "cap analogue binding, pyrene fluorescence competition", "conditions": "20 °C", "Kd [µM]": 0.026}
{"Structure (SMILES)": "Brc1ccc([C@H]2CN3CCSC3=N2)cc1", "target": "Epas1, PAS-B domain (Mus musculus, UniProt P97481)", "test": "binding, microscale thermophoresis", "Kd [µM]": "~0.246"}
{"Structure (SMILES)": "NC(=O)CCC(=O)N1CCOC(CC(c2ccccc2)c2ccccc2)C1 (stereo not drawn)", "target": "Troponin C, slow skeletal and cardiac muscles, with cTnI (TNNC1, Human, UniProt P63316, C35S/C84S/T53C)", "test": "slowing of Ca2+ dissociation, stopped-flow fluorescence", "conditions": "pH 7.0, 15 °C, IAANS-labelled chimera", "Kd [µM]": "482 ± 300"}
{"Structure (SMILES)": "NS(=O)(=O)c1c(F)c(F)c(S(=O)(=O)CCc2ccccc2)c(N2CCOCC2)c1F", "target": "CA2 (Homo sapiens, UniProt P00918, A65S/F130A/I91T/L203N/N67K/V134S)", "conditions": "pH 7", "Kd [µM]": 0.45}
{"Structure (SMILES)": "CC[C@H](C)[C@@H]1NC(=O)[C@H](C)NC(=O)[C@H](C)NC(=O)[C@H]([C@@H](C)O)NC(=O)[C@H](Cc2ccccc2)NC(=O)[C@@H]2CSSC[C@@H]3NC(=O)[C@H](C(C)C)NC(=O)[C@H](CCCCN)NC(=O)[C@H](CO)NC(=O)[C@H](CCCCN)NC(=O)[C@@H]4CSSC[C@H](NC(=O)[C@H](CO)NC(=O)[C@H](CCC(=O)O)NC(=O)CNC(=O)[C@H](CSSC[C@H](NC(=O)CNC1=O)C(=O)N[C@@H](CO)C(=O)N4)NC(=O)[C@@H]1CCCN1C(=O)[C@H](Cc1ccccc1)NC(=O)[C@H](C)NC(=O)[C@H](CC(N)=O)NC(=O)[C@H](CCCCN)NC(=O)[C@H](Cc1ccc(O)cc1)NC3=O)C(=O)N[C@@H](C(C)C)C(=O)N[C@@H](Cc1ccc(O)cc1)C(=O)N[C@@H](CC(C)C)C(=O)N1CCC[C@H]1C(=O)N2", "target": "POPC/POPE lipid membrane", "test": "membrane binding, surface plasmon resonance", "system": "POPC/POPE 80:20 vesicles", "conditions": "pH 7.4", "Kd [µM]": "5.54 ± 0.19"}
{"Structure (SMILES)": "C=C1C(=O)O[C@@H]2[C@H]3C(CO)=CC(=O)C3=C(C)C[C@H](OC(=O)Cc3ccc(O)cc3)[C@@H]12", "target": "MAL12 (Saccharomyces cerevisiae S288c, UniProt P53341)", "test": "binding, fluorescence quenching", "conditions": "30 min, 298 K", "Kd [µM]": 155}
{"Structure (SMILES)": "CC(=O)N[C@@H]1[C@@H](O[C@@H]2O[C@H](C(=O)O)[C@@H](O[C@@H]3O[C@H](CO)[C@@H](O)[C@H](O[C@@H]4O[C@H](C(=O)O)[C@@H](OS(=O)(=O)O)[C@H](OS(=O)(=O)O)[C@H]4OS(=O)(=O)O)[C@H]3NC(C)=O)[C@H](OS(=O)(=O)O)[C@H]2OS(=O)(=O)O)[C@H](O)[C@@H](CO)O[C@H]1N=[N+]=[N-]", "target": "Interleukin-8 (CXCL8, Homo sapiens, UniProt P10145)", "test": "ligand displacement, FP", "Kd [µM]": 29.4}
{"Structure (SMILES)": "Nc1nc2c(ncn2[C@H]2C[C@H](O)[C@@H](COP(=O)(O)OP(=O)(O)[C@H](Cl)P(=O)(O)O)O2)c(=O)[nH]1", "target": "DNA polymerase beta (POLB, Homo sapiens, UniProt P06746)", "test": "substrate, quench-flow kinetics", "conditions": "pH 8.0, 37 °C, incorporation opposite C in gapped DNA", "Kd [µM]": "3.2 ± 0.8"}
{"Structure (SMILES)": "C[n+]1cn(C2OC(COP(=O)(O)OP(=O)([O-])OP(=O)(O)OCC3OC(n4cnc5c(=O)[nH]c(N)nc54)C(O)C3O)C(O)C2O)c2nc(NCc3ccc(Cl)cc3)[nH]c(=O)c21 (stereo not drawn)", "target": "Eif4e", "test": "differential scanning fluorimetry", "Kd [µM]": 3.1}
{"Structure (SMILES)": "CC[C@H](C)[C@H](NC(=O)[C@H](CC(C)C)NC(=O)[C@H](CCCNC(=N)N)NC(=O)c1ccc(CN2CCN(C)CC2)cc1)C(=O)N[C@@H](Cc1ccccc1)C(N)=O", "target": "Cyclin-A2 (CCNA2, Homo sapiens, UniProt P20248)", "test": "binding, tryptophan fluorescence titration", "conditions": "co-expressed GroES-GroEL", "Kd [µM]": "5.44 ± 0.257"}
{"Structure (SMILES)": "Nc1nc2c(ncn2[C@H]2C[C@H](O)[C@@H](COP(=O)(O)OP(=O)(O)C(Cl)(Cl)P(=O)(O)O)O2)c(=O)[nH]1", "target": "POLB I260M", "test": "nucleotide binding, substrate, single turnover kinetics", "conditions": "37 °C, dG misincorporation opposite A", "Kd [µM]": "277 ± 70"}
{"Structure (SMILES)": "CSCC[C@H](NC(=O)[C@H](CO)NC(=O)[C@H](CCCNC(=N)N)NC(=O)[C@H](CCCCN)NC(=O)[C@H](CO)NC(=O)[C@H](CCCCN)NC(=O)[C@H](CCCCN)NC(=O)CNC(=O)[C@H](CCCCN)NC(=O)[C@H](CCCCN)NC(=O)[C@H](CC(C)C)NC(=O)[C@H](CCCNC(=N)N)NC(=O)[C@H](CCCNC(=N)N)NC(=O)[C@@H](N)CSC1CC(=O)N(c2ccc3c(c2)C(=O)OC32c3ccc(N(C)C)cc3Oc3cc(N(C)C)ccc32)C1=O)C(=O)N[C@@H](CC(N)=O)C(=O)N[C@@H](CC(=O)O)C(=O)N1CCC[C@H]1C(=O)N[C@@H](Cc1ccc(O)cc1)C(=O)O (stereo partly drawn)", "target": "Moesin, FERM domain (Homo sapiens, UniProt P26038)", "test": "binding, TMR fluorescence titration", "conditions": "pH 7.4, FERM domain", "Kd [µM]": "0.214 ± 0.022"}
{"Structure (SMILES)": "COc1ccc2c(c1)[C@@H]1C[C@]1(C(=O)N1C3CCC1CN(C)C3)Cn1c-2c(C2CCCCC2)c2ccc(C(=O)NS(=O)(=O)N(C)C)cc21", "target": "Probable UDP-N-acetylglucosamine--peptide N-acetylglucosaminyltransferase SPINDLY (SPY, Arabidopsis thaliana, UniProt Q96301)", "test": "binding, biolayer interferometry", "conditions": "added: SPY wild-type", "Kd [µM]": 2.31}
{"note": "Some of these lines once more:"}
{"Structure (SMILES)": "CC[C@H](C)[C@H](NC(=O)[C@@H]1CCCN1C(=O)[C@H](Cc1c[nH]cn1)NC(=O)[C@@H](NC(=O)[C@H](Cc1ccc(O)c(I)c1)NC(=O)[C@@H](NC(=O)[C@H](CCCNC(=N)N)NC(=O)CNC)C(C)C)[C@@H](C)CC)C(=O)O [iodine-125 labelled]", "target": "angiotensin II receptor type 1, rat", "test": "binding, saturation radioligand binding", "system": "female rat, proestrus, liver membranes", "Kd [µM]": "0.00069 ± 0.00035"}
